Measured values of several laboratories.
A part holds a random share of what one study measured. Substitutions count along the parent as printed.

Series 1
Target: Ras GTPase-activating protein-binding protein 1, full length (G3BP1, Homo sapiens, UniProt Q13283)
Chain of UniProt Q13283 (whole entry, looked up): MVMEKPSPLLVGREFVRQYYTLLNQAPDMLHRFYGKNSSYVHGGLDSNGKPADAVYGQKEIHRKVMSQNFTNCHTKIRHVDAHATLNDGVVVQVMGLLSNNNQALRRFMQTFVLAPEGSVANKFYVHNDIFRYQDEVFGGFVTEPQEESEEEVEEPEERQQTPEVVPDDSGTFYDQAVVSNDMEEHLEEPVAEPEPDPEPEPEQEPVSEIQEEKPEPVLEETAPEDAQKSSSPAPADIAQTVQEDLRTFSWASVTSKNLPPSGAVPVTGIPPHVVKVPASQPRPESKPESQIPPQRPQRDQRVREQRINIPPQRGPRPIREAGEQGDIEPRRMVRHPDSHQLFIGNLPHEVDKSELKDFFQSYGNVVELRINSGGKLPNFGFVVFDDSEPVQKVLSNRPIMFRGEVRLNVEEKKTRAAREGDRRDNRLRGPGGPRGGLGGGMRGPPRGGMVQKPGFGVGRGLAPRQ
Method: RNA Bind-n-Seq
Molecule type: RNA
Matrix: in vitro
Tested at: 200 nM
Setting: whole 134-nt RNA, ends assumed
With: 150 mM KCl
Relative to: input library
Direction: higher = stronger binding
With `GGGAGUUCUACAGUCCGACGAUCCUCAAGUCCUGUGCUACACAUCGUAUGUACCGAAUCGGAAAAAGGAAAGGUGGAAAGUAUUAUGUUACGCCGUUCGGAUCUGCACUUCCAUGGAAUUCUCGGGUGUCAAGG` the log2 enrichment was -0.759.
`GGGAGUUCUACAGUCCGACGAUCGCAGGAAGUAAAAACCAAUGGAAAUGCUUCGGAUAGUGGCAGGGGUGGGGGUUGCUAAGGAAAGGGUGGGAUGGGAGUGGGUAAAGAGUUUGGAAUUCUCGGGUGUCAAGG` has a log2 enrichment of 1.17.
`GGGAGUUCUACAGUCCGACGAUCUAACUUUAGAGGAGGAUGUGAUGGAUAUGGCAGUGGACGUGGAUUUGGGGAUGGCUAUAAUGGGUAUGGAGGAGGACCUGGAGGUGGCAAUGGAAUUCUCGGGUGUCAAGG` gave a log2 enrichment of 0.378.
`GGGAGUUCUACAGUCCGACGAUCUCAAGUCCUGUGCUACACAUCGUAUGUACCGAAUCGGGGAAGGAAGGGAAGGGGAAAGUAUUAUGUUACGCCGUUCGGAUCUGCACUUCCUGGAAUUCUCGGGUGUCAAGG` gave a log2 enrichment of 0.41.
`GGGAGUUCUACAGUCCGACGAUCCAAGUCCUGUGCUACACAUCGUAUGUACCGAAUCGGUUUGGGUUUGGGUUUGGGGAAAGUAUUAUGUUACGCCGUUCGGAUCUGCACUUCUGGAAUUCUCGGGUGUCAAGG` has a log2 enrichment of -0.403.
`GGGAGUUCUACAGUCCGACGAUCUCCUCAAGUCCUGUGCUACACAUCGUAUGUACCGAAUCGGUGGUGGAAAGGAAAGUAUUAUGUUACGCCGUUCGGAUCUGCACUUCCAGCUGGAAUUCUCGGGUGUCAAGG` gave a log2 enrichment of -0.396.
For `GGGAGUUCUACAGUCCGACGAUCUCCUGUGCUACACAUCGUAUGUACCGAAUCGGCCCCCCGGGCCCCCCGGGCCCCCCGGGGAAAGUAUUAUGUUACGCCGUUCGGAUCUGCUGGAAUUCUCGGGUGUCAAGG`, the log2 enrichment was -0.631.
`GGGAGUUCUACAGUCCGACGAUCCUCAAGUCCUGUGCUACACAUCGUAUGUACCGAAUCGGAAGGGAAGGGAAGGGGAAAGUAUUAUGUUACGCCGUUCGGAUCUGCACUUCCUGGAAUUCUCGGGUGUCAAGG` gave a log2 enrichment of 0.493.
`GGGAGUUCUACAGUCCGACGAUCGUCCUGUGCUACACAUCGUAUGUACCGAAUCAAACCCCCAAAUUUUUAAAUUUUUAAAAAAGUAUUAUGUUACGCCGUUCGGAUCUGCACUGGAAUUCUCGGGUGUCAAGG` gave a log2 enrichment of 0.136.
For `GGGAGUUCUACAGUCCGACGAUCCUCAAGUCCUGUGCUACACAUCGUAUGUACCGAAUCGGGCCGGGCCGGCCGGGAAAGUAUUAUGUUACGCCGUUCGGAUCUGCACUUCCAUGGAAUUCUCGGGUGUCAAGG`, the log2 enrichment was -0.127.
`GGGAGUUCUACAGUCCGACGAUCCUCAAGUCCUGUGCUACACAUCGUAUGUACCGAAUCGGAAAAAGGUGGAAAGGAAAGUAUUAUGUUACGCCGUUCGGAUCUGCACUUCCAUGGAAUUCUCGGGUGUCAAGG` gave a log2 enrichment of -0.496.
With `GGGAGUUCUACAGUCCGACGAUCGCAGGAAGUAAAAACAAAUGGAAAUGCUUCGGUUAGUGGCAGGGGUGGGGGUUGCUAAGGAAAGGGUGGGAUGGGAGUGGGUAAAGAGUUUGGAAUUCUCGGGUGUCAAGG` the log2 enrichment was 0.649.
`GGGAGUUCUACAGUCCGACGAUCUGUGAGAUUAAACUUGCCCCCAAACGAUCUCGUUUGGAGACUAGAGCUGGAGAAGAAGAUGAAGGAGAAGAGGAUUCUGAUUCUGAUUAUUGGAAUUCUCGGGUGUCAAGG` has a log2 enrichment of 0.0844.
For `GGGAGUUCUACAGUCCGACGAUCAGUCCUGUGCUACACAUCGUAUGUACCGAAUCGGGGUUUGGGGUUUUUGGGGUGGGGAAAGUAUUAUGUUACGCCGUUCGGAUCUGCACUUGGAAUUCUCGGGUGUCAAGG`, the log2 enrichment was 0.628.

Series 2
Target: ABI1, truncated, D143A, DHFR fusion (Arabidopsis thaliana)
Method: DHFR PCA, deep sequencing
Matrix: yeast
Setting: methotrexate growth selection, single substitutions
With: (+)-ABA 4.8 µM
Relative to: wild-type fitted maximum
Direction: higher = stronger binding
Parent: PYL1, truncated, DHFR fusion (Arabidopsis thaliana); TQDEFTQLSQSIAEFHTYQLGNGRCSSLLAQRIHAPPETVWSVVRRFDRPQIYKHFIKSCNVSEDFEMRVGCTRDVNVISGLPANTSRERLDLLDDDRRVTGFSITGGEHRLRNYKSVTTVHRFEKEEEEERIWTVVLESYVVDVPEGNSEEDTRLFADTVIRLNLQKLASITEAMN; partner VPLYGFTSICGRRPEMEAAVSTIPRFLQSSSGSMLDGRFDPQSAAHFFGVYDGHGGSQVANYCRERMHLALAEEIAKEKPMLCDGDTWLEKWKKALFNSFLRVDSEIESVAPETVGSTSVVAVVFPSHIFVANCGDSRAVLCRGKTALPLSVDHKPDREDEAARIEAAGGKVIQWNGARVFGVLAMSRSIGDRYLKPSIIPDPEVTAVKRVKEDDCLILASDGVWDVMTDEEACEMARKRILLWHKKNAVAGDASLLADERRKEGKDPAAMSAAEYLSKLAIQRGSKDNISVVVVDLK
For `A170L`, “relative binding score” read -5.41%.
Under “relative binding score”, `E14N` is recorded as 30.4%.
Under “relative binding score”, `N77I` is recorded as 75.9%.
`T135K` — result for “relative binding score”: -9.1%.
`T101S`: “relative binding score” 37.7%.
Under “relative binding score”, `S27V` is recorded as 1.32%.
For `D144L`, “relative binding score” read -2.87%.
Under “relative binding score”, `F157D` is recorded as 6.11%.
`R155M`: “relative binding score” 43.6%.
For `S11V`, “relative binding score” read 80.9%.
`I33L`: “relative binding score” 0.532%.
`K116W` — result for “relative binding score”: 1.21%.
For `S42D`, “relative binding score” read 67.2%.
`Q19A` — result for “relative binding score”: 71.4%.

Series 3
Target: ATF2, bZIP domain (human)
Method: DHFR protein complementation
Matrix: yeast
Setting: single substitutions, most at no-binding floor
Relative to: wild-type JUN-FOS pair
Direction: higher = stronger binding
Parent: JUN, bZIP domain (human); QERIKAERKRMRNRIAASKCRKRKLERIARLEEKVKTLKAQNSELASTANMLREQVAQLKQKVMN; partner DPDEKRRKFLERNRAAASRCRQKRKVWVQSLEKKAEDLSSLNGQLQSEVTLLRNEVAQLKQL
`V56M` gave a binding fitness of -1.48 natural log.
For `R53G`, the binding fitness was -1.5 natural log.
With `A29G` the binding fitness was -1.35 natural log.
With `V35P` the binding fitness was -1.48 natural log.
With `L38S` the binding fitness was -1.46 natural log.
The binding fitness of `A29C` is reported as -1.45 natural log.
With `S43V` the binding fitness was -1.38 natural log.
With `V35G` the binding fitness was -1.46 natural log.
`A46W` gave a binding fitness of -1.25 natural log.
With `K36G` the binding fitness was -1.45 natural log.
`K39H` gave a binding fitness of -1.3 natural log.
`Q55N` gave a binding fitness of -1.36 natural log.
`L45D` has a binding fitness of -1.52 natural log.
`Q55I` has a binding fitness of -1.48 natural log.
`E54S` has a binding fitness of -1.45 natural log.
For `R53C`, the binding fitness was -1.4 natural log.

Series 4
Target: CCND1, cyclin fold, Cln2 fusion (human)
Method: yeast growth competition, sequencing
Matrix: yeast
Setting: weak parent motif
Relative to: not given
Direction: higher = stronger binding
Parent: PLK5 docking peptide (human); IFRKVGQRLLTQC
`IFAKVGQRLLTQC [R3A]` — result for “normalised enrichment score”: 0.25.
`IFRKVGQALLTQC [R8A]`: “normalised enrichment score” 0.403.
For `IFRKVAQRLLTQC [G6A]`, “normalised enrichment score” read 0.337.
`IFRKVGQRLLTAC [Q12A]`: “normalised enrichment score” 0.392.
For `IFRKVGQRLLAQC [T11A]`, “normalised enrichment score” read 0.664.
Under “normalised enrichment score”, `AFRKVGQRLLTQC [I1A]` is recorded as 0.328.

Series 5
Target: Myc proto-oncogene protein, bHLH-zipper, MAX partner unstated (MYC, Homo sapiens, UniProt P01106, residues 368-449)
Chain of UniProt P01106 (368-449, looked up): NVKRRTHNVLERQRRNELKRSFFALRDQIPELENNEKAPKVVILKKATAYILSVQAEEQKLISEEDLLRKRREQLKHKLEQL
Method: protein-binding microarray
Molecule type: double-stranded DNA, one strand shown
Matrix: in vitro
Tested at: not given
Setting: k-mer, scored over probes, only values ≥0.25
Direction: higher = stronger binding
With `GACCACGA` the E-score was 0.381.
For `CGTGGAAG`, the E-score was 0.337.
With `CCGTGCAC` the E-score was 0.273.
`CATATGCC` gave an E-score of 0.321.
The E-score of `CATGCATG` is reported as 0.438.
`CATGCTCA` gave an E-score of 0.376.
The E-score of `CGTGGACC` is reported as 0.32.
For `CATGAGGC`, the E-score was 0.442.
`CATGACCA` gave an E-score of 0.265.
`CCGCATGC` has an E-score of 0.452.
`CTCCCCAA` gave an E-score of 0.302.
For `CCGCGCCC`, the E-score was 0.258.
With `GTGCTTTA` the E-score was 0.259.
The E-score of `CATGGTCA` is reported as 0.369.
For `CGGACACG`, the E-score was 0.382.
With `CGCACCCA` the E-score was 0.297.
`ACATGCCA` has an E-score of 0.388.
The E-score of `GTCGTGCA` is reported as 0.259.

Series 6
Target: Interferon regulatory factor 7, full length, phosphomimetic (IRF7, Homo sapiens, UniProt Q92985, residues 1-503, S101K/S471D/S472D/S475D/S476D/S477D/S483D/S484D/S487D)
Method: protein-binding microarray
Molecule type: double-stranded DNA, one strand shown
Matrix: in vitro
Tested at: 250 nM
Setting: 60-bp whole probe
With: salmon DNA 0.4 mg/ml
Relative to: random background probes
Direction: higher = stronger binding
Constant ends, left off below: GCCTAGCAC … GTCTTGATTCGCTTGACGCTGCTG
Target sequence (chain): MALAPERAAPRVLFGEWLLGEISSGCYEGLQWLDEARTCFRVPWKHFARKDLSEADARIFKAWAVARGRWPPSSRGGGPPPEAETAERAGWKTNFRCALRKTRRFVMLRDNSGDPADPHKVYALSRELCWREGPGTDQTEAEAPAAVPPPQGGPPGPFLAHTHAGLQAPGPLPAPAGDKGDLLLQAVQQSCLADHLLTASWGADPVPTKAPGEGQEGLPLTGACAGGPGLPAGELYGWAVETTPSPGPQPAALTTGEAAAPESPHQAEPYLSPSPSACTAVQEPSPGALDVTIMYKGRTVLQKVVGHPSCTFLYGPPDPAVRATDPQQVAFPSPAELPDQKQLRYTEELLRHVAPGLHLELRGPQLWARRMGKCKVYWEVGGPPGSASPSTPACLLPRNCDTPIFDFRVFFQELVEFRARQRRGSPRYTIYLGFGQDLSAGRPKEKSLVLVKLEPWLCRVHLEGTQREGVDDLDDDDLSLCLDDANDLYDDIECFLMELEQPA
For `GGATATATATCATTTAATTAGTGCTAG`, the log fluorescence was -0.161 z-score.
`GACGATTTCAGGCTCGAGACGTGCTAG` gave a log fluorescence of 0.444 z-score.
`TTAGCACTGCTTTTCCTTTAGTGCTAG` gave a log fluorescence of 0.236 z-score.
The log fluorescence of `GACGGACTGGGTCTCCGGACGTGCTAG` is reported as -0.555 z-score.
`TTAGGACTGGACTTTCGGTTTGTGCTA` has a log fluorescence of 3.21 z-score.
The log fluorescence of `GACGGACGGGACTTTCGGGACGTGCTA` is reported as -0.661 z-score.
For `TTAGATTTCAGTTTCGGTTAGTGCTAG`, the log fluorescence was 9.15 z-score.
With `TTAGCTATCCTTCTCCTTTAGTGCTAG` the log fluorescence was 0.16 z-score.
For `TTAGCTATCGACTATCGGTTAGTGCTA`, the log fluorescence was -0.288 z-score.
`GACGGTTTCCTTATCCTGATGTGCTAG` has a log fluorescence of 3.09 z-score.
The log fluorescence of `TTAAATTCCAGTTTCGATTAGTGCTAG` is reported as 9.39 z-score.
With `CAAGTGATGTAGCTGGGAGCGTGCTAG` the log fluorescence was -0.939 z-score.
With `TTAGGTTTCGACCTTCGGTTAGTGCTA` the log fluorescence was 5.91 z-score.
The log fluorescence of `GACGGACTGGGTCTCGAGACGTGCTAG` is reported as -0.0972 z-score.
`GACGGTTTCCTTATCCAGACGTGCTAG` has a log fluorescence of 3.06 z-score.
`GAGGGTTTCGGTTTCGGGACGTGCTAG` gave a log fluorescence of 13.2 z-score.
`TCATGTTTCTTCTGCTGACTGTGCTAG` has a log fluorescence of 1.11 z-score.
`TCAACCCTCCCTCTGTAAGTGTGCTAG` gave a log fluorescence of -0.153 z-score.
For `TCAGGTCTCGCTATGTTACTGTGCTAG`, the log fluorescence was 0.91 z-score.
The log fluorescence of `CTTTTATGCTCTTTCTACATGTGCTAG` is reported as 1.64 z-score.

For quick reference, copied from above (series 2):
`T101S`: “relative binding score” 37.7%.
Under “relative binding score”, `S27V` is recorded as 1.32%.
For `D144L`, “relative binding score” read -2.87%.
Under “relative binding score”, `F157D` is recorded as 6.11%.
`R155M`: “relative binding score” 43.6%.
For `S11V`, “relative binding score” read 80.9%.
`I33L`: “relative binding score” 0.532%.
`K116W` — result for “relative binding score”: 1.21%.
